# Published values collected from several papers.
# Compare with care: the assays were run in different laboratories. Several values in a cell are separate wells, animals, samples, runs or records. ± marks the error that the study gave.
SMILES,assay,test system,conditions,scale,measurement,value
c1ccc2cc3c(ccc4ccccc43)cc2c1,,polyethylene-water partitioning,PAH compilation,,literature range of log K,5.43 to 6.22 log units
CN1C(=O)[C@@H](NC(=O)c2nnc(Cc3ccccc3)[nH]2)COc2cccnc21,phase I single ascending dose,"human, male and female","oral, 800 mg, fasted",,participants with any AE of special interest,0%
O=C(O)C1=CO[C@@H](O[C@@H]2O[C@H](CO)[C@@H](O)[C@H](O)[C@H]2O)[C@@H]2C(CO)=CC[C@H]12,post-procedure stability,rat plasma,"200 ng/mL, 1 h, room temperature",,accuracy,103%
Cc1ccc([C@@H]2O[C@H](CO)[C@@H](O)[C@H](O)[C@H]2O)cc1Cc1ccc(-c2ccc(F)cc2)s1,,Japanese type 2 diabetes patients,"200 mg, day 6, 24 h urine collection",baseline: baseline,urinary calcium excretion change,-40 mg
CNC(=O)c1ccc(-c2cnc3ncc(Cc4ccc5ncccc5c4)n3n2)cc1F,,healthy human subjects,"oral, 200 mg, Insomnia, grade 3, all causality, added: itraconazole 200 mg/day",,subjects with adverse event,0%
Oc1ccc(/C=C/c2cc(O)cc(O)c2)cc1,,"rat, azoxymethane-injected, blood","in vivo, 100 mg/kg, at sacrifice",,UA level,1.1 mg/dL and 0.9 mg/dL and 1.2 mg/dL
FC(F)(F)c1ccc(CNc2ccc(Cc3c[nH]c4ncc(Cl)cc34)cn2)cn1,measured: weight increased,"human, advanced solid tumours, all patients","oral, 1000 mg/day, any grade",,treatment-related adverse events,4%
COc1cccc(OC)c1-c1cc(C(=O)NC2(C(=O)O)C3CC4CC(C3)CC2C4)nn1-c1ccc(C(=O)N(C)CCCN(C)CCCN(C)C(=O)CN2CCN(CC(=O)[O-])CCN(CC(=O)[O-])CCN(CC(=O)[O-])CC2)cc1C(C)C.[177Lu+3] (stereo not drawn),,"mouse, HT-29 xenograft","24 h post injection, biodistribution",baseline: tumour over heart uptake,tumour-to-heart ratio,105
N#Cc1ccc(C(c2ccc(C#N)cc2)n2cncn2)cc1,,"human patients, plasma","oral, 10 mg daily",,AUC at steady state per dose,4.32 ± 1.13 µg·h/mL/mg
C[C@@H]1CN(CC(=O)N2CC(C)(C)c3nc(CO)c(Cc4ccc(F)cc4)cc32)[C@@H](CN2CCOC[C@H]2C)CN1,,"cynomolgus monkey, male","oral, 5 mg/kg, median",,Tmax,30 min
CCOc1c([C@H](C)n2nc(C)c3c(N)ncnc32)cc(Cl)c(F)c1[C@@H]1CNC(=O)C1,,"patients with indolent lymphoma, plasma","oral, 30 mg, day 15, monotherapy",,Cmax,2910 nM
COc1ccc2nc([S@@+]([O-])Cc3ncc(C)c(OC)c3C)[nH]c2c1,,"human male, dried plasma spots","dose not given, mean, added: fluvoxamine and voriconazole",baseline: inhibition over control,AUC fold change,7.4 fold
CNCCOC12CC3(C)CC(C)(CC(Cn4ncc(-c5ccc(N6CCc7cccc(C(=O)Nc8nc9ccccc9s8)c7C6)nc5C(=O)O)c4C)(C3)C1)C2,,"beagle dog, male, anaesthetised","intravenous bolus, 0.03 mg/kg, 120 min",baseline: baseline,mean arterial pressure change,-3%
NC1(C(=O)N[C@@H](CCO)c2ccc(Cl)cc2)CCN(c2nc[nH]c3nccc2-3)CC1,,metastatic CRPC patients,"400 mg b.i.d., any grade, treatment-related, added: enzalutamide 160 mg daily",,incidence of Amnesia,14.3%
O=C(O)Cc1c[nH]c2ccccc12,"binding, MIDAS equilibrium dialysis LC-MS",A2AR-BRIL thermostabilized,concentration not given,baseline: no-protein control,log2 fold change,-0.244
Cn1cc(Nc2nccc(-c3ccc4c(c3)CN(C3COC3)CC[C@H]4NC(=O)c3cn(C(C)(C)C)nn3)n2)cn1,,"human, whole blood","50 mg twice daily, day 14",baseline: pre-dose baseline,granulocyte count change,-16.7%
Cc1nc2cccc(OCC(C)(C)C(=O)NC(C)C)c2c(N)c1C(=O)O,,"male Swiss albino CD-1 mouse, bone marrow","oral, 500 mg/kg, 24 h",,PCE/NCE ratio,0.8
CNC(=O)c1ccc(-c2cnc3ncc(Cc4ccc5ncccc5c4)n3n2)cc1F,,gastric cancer patients,"oral, 600 mg twice daily, all grades RP2D expansion",,abdominal pain incidence,33%
Cc1nc(-c2ccc(OCC(C)C)c(C#N)c2)sc1C(=O)O,"measured: neutrophils, haemoglobin",healthy Chinese subjects,"oral, 40 mg, fed",,haematological reaction incidence,5%
O=C(O)CCC(=O)O.[2H]C([2H])([2H])Oc1cc(C)c2[nH]ccc2c1CN1CC[C@@H](C2CC2)C[C@H]1c1ccc(C(=O)O)cc1,multiple ascending dose,healthy Chinese subjects,300 mg once daily,,subjects with elevated AST TEAE,0%
CCCCOC(=O)N1CCN(C(=O)[C@H](CP(=O)(O)O)NC(=O)c2cc(N3CC[C@H](OC)C3)nc(-c3ccccc3)n2)CC1,measured: Urea,"human, blood","8 mg, 24 h",,change from baseline,-0.24 ± 1.19 mmol/L
Cc1coc([C@H]2C[C@H]3[C@@H](CF)SC(N)=N[C@@]3(c3ccc(F)cc3F)CO2)n1,,"male 129/SVE mouse, brain","subcutaneous, 80 mg/kg, 14 h",,brain concentration,52 nM
Nc1ncnc2c1ncn2[C@H]1C[C@@H]2OP(=O)(O)OC[C@H]3O[C@@H](n4cnc5c(N)ncnc54)C[C@@H]3OP(=O)(O)OC[C@H]2O1,,"non-tumor-bearing mice, blood","intravenous, 1 mg/kg, toxicity study",,neutrophil percentage,11.4 ± 3.46%
COc1ccc2cc(CCC[18F])ccc2c1,,n-octanol/0.1 M phosphate buffer,"pH 7.4, 25 °C, per radiosynthesis batch",,partition coefficient,296 and 348 and 232
C[C@@H](Oc1ccc(S(C)(=O)=O)cc1C(=O)N1C[C@@H]2C[C@]2(c2cc(C(F)(F)F)on2)C1)C(F)(F)F,,human,"oral plus intravenous microtracer, dose not given",,subjects with somnolence,16.7%
Cc1c(-c2ccc(N3CCc4cccc(C(=O)Nc5nc6ccccc6s5)c4C3)nc2C(=O)O)cnn1CC12CC3(C)CC(C)(C1)CC(OCCNCC[C@H](O)CO)(C3)C2,,anaesthetised male beagle dogs,"intravenous infusion, 0.3 mg/kg/min, 30 min",baseline: vehicle,cardiac output change,-20%
C=CCN1CC(=O)N2[C@@H](Cc3ccc(O)cc3F)C(=O)N(Cc3cccc(N4CC(N5CCN(CC)CC5)C4)n3)C[C@@H]2N1C(=O)NCc1ccccc1,,advanced solid tumour patients,"oral, 120 mg twice daily, grade ≥3, dose-escalation",,treatment-related diarrhoea,0%
O=C(Nc1cnccc1Cl)N1CCN(Cc2ccc3c(c2)OC(F)(F)O3)CC1,multiple ascending dose,young men,"75 mg, treatment-emergent adverse events",,abdominal pain incidence,33.3%
N#Cc1ccc2c(c1)[C@H]1CCCN(C(=O)c3ccc4[nH]cnc4c3)[C@H]1C2,,"human, male","80 mg, day 15",,DHEA-S level,6.6 µmol/L
COc1ccc2c(c1)CN(C(=O)CCN1CCC(Cc3ccccc3)CC1)CC[S@@+]2[O-],,"beagle dog, female, plasma","intravenous, 8 mg/kg, day 14, 14-day toxicity study",,unbound plasma concentration,5170 nM
Cc1cc(Nc2cc3ncccc3c(N[C@@H]3C[C@H]4CC[C@@H](C3)N4CCC#N)n2)n[nH]1,,healthy human,"oral, 30 mg single dose, 2 weeks",,subjects with contact dermatitis,0%
C[Si](C)(C)O[Si](C)(C)O[Si](C)(C)C,,1-octanol/water,concentration not given,,entropy of phase change,0.133 kJ/(mol·K)
Cc1cc(NC2CCN(C(=O)OC3CCN(C(=O)/C=C/CN(C)C)C3)CC2)n2ncc(C(C)C)c2n1 (stereo not drawn),"Phase I dose escalation CTCAE v4.0, measured: Fatigue",patients with advanced solid tumours,"dose not given, all dose schedules any grade",,patients with adverse event,28%
O=C(O)CCCC[C@@H]1SC[C@@H]2NC(=O)N[C@@H]21,"binding, MIDAS equilibrium dialysis LC-MS",A2AR-BRIL thermostabilized,concentration not given,baseline: no-protein control,log2 fold change,-0.618
COc1cc(N2CCC(N3CCN(C)CC3)CC2)ccc1Nc1ncc(Cl)c(Nc2ccccc2P(C)(C)=O)n1,,"human male, feces","oral, 180 mg",baseline: dose,radioactivity recovered,64.8%
CCC(=O)O[C@]1(C(=O)SCF)[C@H](C)C[C@H]2[C@@H]3C[C@H](F)C4=CC(=O)C=C[C@]4(C)[C@@]3(F)[C@@H](O)C[C@@]21C,three-compartment model,"rat, plasma","intravenous, 90 nmol/kg",,slow compartment volume,9 ± 3.5 L/kg
COC(=O)C1=CO[C@@H](O[C@@H]2O[C@H](CO)[C@@H](O)[C@H](O)[C@H]2O)[C@@H]2C(CO)=CC[C@H]12,,rat plasma,"8 ng/mL, 2 weeks, -70 °C, post-preparative stability",,accuracy,89.9%
CO[C@H]1/C=C/O[C@@]2(C)Oc3c(C)c(O)c4c(c3C2=O)C2=NC3(CCN(CC(C)C)CC3)NC2=C(NC(=O)/C(C)=C\C=C\[C@H](C)[C@H](O)[C@@H](C)[C@@H](O)[C@@H](C)[C@H](OC(C)=O)[C@@H]1C)C4=O,,"CD-1 mouse, female, plasma","intravenous, 5 mg/kg",,Vd,3.5 L/kg
COc1cc2nccc(Oc3ccc(NC(=O)c4cc5c(n(-c6ccccc6)c4=O)CCCC5=O)nc3)c2cc1OC,,relapsed or refractory AML,"oral, 6 mg once daily",,grade ≥3 Leucocytosis patients,33.3%
CC(C)[C@H](C(=O)Nc1ccc(C(=O)NO)cc1)c1ccccc1,,whole blood,"10.0 ng/mL, 1 h, 4 °C, stability on ice",,accuracy,107%
CO[C@H]1C[C@@H]2CC[C@@H](C)[C@@](O)(O2)C(=O)C(=O)N2CCCC[C@H]2C(=O)O[C@H]([C@H](C)C[C@@H]2CC[C@@H](O)[C@H](OC)C2)CC(=O)[C@H](C)/C=C(\C)[C@@H](O)[C@@H](OC)C(=O)[C@H](C)C[C@H](C)/C=C/C=C/C=C/1C,,healthy adult horses,"intravenous, 0.06 mg/kg, 0 h",,rectal temperature,37.1 ± 0.4 °C
COc1cc(Nc2ncc3c(n2)-c2ccc(Cl)cc2C(c2c(F)cccc2OC)=NC3)ccc1C(=O)O,"measured: decreased lymphocyte count, all grades","cancer patients, phase 1/2","oral, dose not given, added: pembrolizumab",,patients with adverse event,75%
O=C(CCCCCCC(=O)Nc1ccc(CC[18F])cc1)NO,,"athymic nu/nu male mice, LNCaP xenograft, small intestine","intravenous, 1 h",,tissue uptake,16.7 ± 1.2 %ID/g
Cc1cc(Nc2ccc(S(F)(F)(F)(F)F)cc2)n2nc(C(C)(F)F)nc2n1,,Plasmodium vivax malaria patients,"oral, 800 mg",,adverse event Vomiting,0%
CCc1cc(C(=O)NC)c2nccc(N3CCc4c(cc(Cn5ccnc5)cc4-c4cn(C)nc4C(F)(F)F)C3=O)c2c1,,Sprague Dawley rats,"oral, 50 mg/kg once daily, 7 days",baseline: vehicle,serum LDL change,6.5%

# Some of these lines once more:
SMILES,assay,test system,conditions,scale,measurement,value
CNC(=O)c1ccc(-c2cnc3ncc(Cc4ccc5ncccc5c4)n3n2)cc1F,,healthy human subjects,"oral, 200 mg, Insomnia, grade 3, all causality, added: itraconazole 200 mg/day",,subjects with adverse event,0%
Oc1ccc(/C=C/c2cc(O)cc(O)c2)cc1,,"rat, azoxymethane-injected, blood","in vivo, 100 mg/kg, at sacrifice",,UA level,1.1 mg/dL and 0.9 mg/dL and 1.2 mg/dL
FC(F)(F)c1ccc(CNc2ccc(Cc3c[nH]c4ncc(Cl)cc34)cn2)cn1,measured: weight increased,"human, advanced solid tumours, all patients","oral, 1000 mg/day, any grade",,treatment-related adverse events,4%
